Literature values, collected from citations in different studies.
Each line is one published result; not all experiments were run side by side. “And” joins repeats or separate records; there may be more than shown. ± marks the error that the study gave. No end group written: not given here.
B1: O-methyl-Tyr, C-amide; chain Y(Me)ECG-NH2 (N-terminus assumed; SMILES COc1ccc(C[C@H](N)C(=O)N[C@@H](CCC(=O)O)C(=O)N[C@@H](CS)C(=O)NCC(N)=O)cc1)

C[C@]12CC[C@@H]3c4ccc(O)cc4CC[C@H]3[C@@H]1CC[C@@H]2OC(=O)c1ccccc1  IC50 (lipid peroxidation, TBARS; rat brain homogenate; with: 50 µM ferric ions): 14.9 µM
CN(C)C(=O)c1cc2cnc(Nc3ccc(N4CCNCC4)cn3)nc2n1C1CCCC1  median progression-free survival (recurrent glioblastoma patients; dose not given, continued after surgery): 9.7 weeks
O=C(O)/C=C/c1ccc(O)c(O)c1  IC50 (superoxide scavenging, PMS-NADH system): 51 µM
Ac-ELDWDADDIRLQIDNPD-NH2 (N-acetyl, C-amide)  IRF5 protein level (western blot; peptide, Tsk/+ mouse, myocardium; subcutaneous, 1 mg/kg/day, 21 days): decreased
CONC(=N)c1ccc(-c2ccc(-c3ccc(C(=N)NOC)cc3)o2)cc1  cure rate (human, first-stage African trypanosomiasis; po, dose not given): 95%
leuprorelin  castration rate (item: serum testosterone; patients; dose not given, 24 weeks, 3-month formulation): 100%
CC(=O)Oc1ccccc1C(=O)O  reduction in metastasis risk (human colon cancer patients; low dose, cancer detected during treatment): 83%
CCCc1nn(C)c2c(=O)[nH]c(-c3cc(S(=O)(=O)N4CCN(C)CC4)ccc3OCC)nc12  blood pressure reduction (ambulatory blood pressure monitoring, item: SBP; healthy and hypertensive humans; 100 mg, evening dosing): -5.8 mmHg
O=C1CC(c2ccc(O)cc2)Oc2cc(O)cc(O)c21 (centres unmarked)  blood glucose decrease (Wistar rat, normoglycaemic; oral gavage, 50 mg/kg, single dose): ~10%
ferroquine  curative dose (mouse malaria model; oral, single dose): 30 mg/kg
CC(C)(O)CNc1nc(Nc2ccnc(C(F)(F)F)c2)nc(-c2cccc(C(F)(F)F)n2)n1  median 2-HG reduction (item: 2-hydroxyglutarate; human advanced haematological malignancy; 50 to 650 mg/day): > 90%
COc1ccc(F)cc1C(=O)NCc1ccc(-c2nn([C@@H](C)C(F)(F)F)c(N)c2C(N)=O)cc1  overall response rate (CLL/SLL patients, prior covalent BTKi; dose not given): 62%
CO[C@H]1/C=C/O[C@@]2(C)Oc3c(C)c(O)c4c(O)c(c(/C=N/N5CCN(C)CC5)c(O)c4c3C2=O)NC(=O)/C(C)=C\C=C\[C@H](C)[C@H](O)[C@@H](C)[C@@H](O)[C@@H](C)[C@H](OC(C)=O)[C@@H]1C  protein level (Western blot, item: P-glycoprotein; human, intestine; dose not given, 23 d; relative to: baseline): 3.5 fold
C[C@@H](NCCCc1cccc(C(F)(F)F)c1)c1cccc2ccccc12  time to iPTH return to baseline (human primary hyperparathyroidism; oral, dose not given, normal renal function): ≤ 12 h
CN1CCC(c2ccccc2CC(C)(C)Nc2nc(N3CCOCC3)nc(-n3c(C(F)F)nc4ccccc43)n2)CC1  EC90 (basophil activation, inhibitor, item: CD63; healthy human volunteers, plasma; oral, with: ex vivo stimulation): 0.009 µM
CCCOc1ccc(S(=O)(=O)NCCC2CCCN2C)cc1-c1nc2c(CCC)nn(C)c2c(=O)[nH]1 (centres unmarked)  IIEF-EF score change (erectile dysfunction patients; dose not given, meta-analysis; relative to: placebo, direction not given): 5.65
CN1CC[C@H](c2c(O)cc(O)c3c(=O)cc(-c4ccccc4Cl)oc23)[C@H](O)C1  disease-free interval (human; intravenous infusion, dose not given, after stopping therapy): 48 months
COc1ccc2c(O[C@@H]3C[C@H]4C(=O)N[C@]5(C(=O)NS(=O)(=O)C6CC6)C[C@H]5/C=C\CCCCN(C)C(=O)[C@@H]4C3)cc(-c3nc(C(C)C)cs3)nc2c1C  SVR rate (HCV genotype 1 prior relapsers; concentration not given, with: peginterferon and ribavirin): 79.2%
C[C@]12CC[C@@H]3c4ccc(O)cc4CC[C@H]3[C@@H]1CC[C@H]2O  mean ischemic area (rat transient MCA occlusion; dose not given, 24 h pretreatment): 6.3 ± 2.3%
semaglutide  HbA1c change (type 2 diabetes patients; 1.0 mg, 40 weeks; relative to: baseline): -1.86%
CCn1cc(C(=O)N2CCOCC2)c(=O)c2cc(NC3Cc4ccccc4C3)cnc21  amygdala reactivity (fMRI; generalised anxiety disorder patients; single dose): decreased
CN(C)/N=N/c1[nH]cnc1C(N)=O  response rate (human, metastatic melanoma; dose not given): 7 to 12%
CCC(C)c1c(O)ccc2c1CC[C@@H]1[C@@H]2CC[C@]2(C)C(=O)CC[C@@H]12 (some centres unmarked)  IC50 (lipid peroxidation, TBARS; rat brain homogenate; with: 50 µM ferric ions): 4.91 µM
CC(=O)O[C@H]1Cc2ccccc2N(C(N)=O)c2ccccc21  seizure and afterdischarge duration (kindled mice; ip, 100, 200, 300 mg/kg): no effect
C[C@]12CC[C@@H]3c4ccc(O)cc4CC[C@H]3[C@@H]1CCC2=O  IC50 (lipid peroxidation, item: malondialdehyde; rat brain homogenate): 80.8 µM
NC(=O)N1c2ccccc2C[C@H](O)c2ccccc21  ED50 (protection against seizures; male NMRI mouse; MES-induced seizures): 27.8 mg/kg
NC(=S)NN=Cc1ncccc1N  stable disease (pretreated advanced cancer patients; intravenous, dose not given, trials, single agent): 16% and 30%
B1  EC50 (hydroxyl radical scavenging): 0.032 ± 0.006 µM
CC1=C(/C=C/C(C)=C/C=C/C(C)=C\C(=O)O)C(C)(C)CCC1  3-year event-free survival (human, high-risk neuroblastoma; oral, 80 mg/m2 twice daily, 2 weeks monthly for 6 months, after consolidation): 45%
CC(C)C[C@H]1C(=O)N2CCC[C@H]2[C@]2(O)O[C@](NC(=O)[C@@H]3C=C4c5cccc6[nH]c(Br)c(c56)C[C@H]4N(C)C3)(C(C)C)C(=O)N12  reduction in cardiovascular events (human type 2 diabetes patients; dose not given): 40%
COc1ccc(C2=N[C@@](C)(C(=O)[O-])CS2)c(O)c1.[Na+]  iron clearing efficiency (bile duct-cannulated rats, non iron-overloaded; oral, 300 µmol/kg, 24 h, monosodium salt): 6.6 ± 2.8%
C[C@@H]1CCO[C@H]2Cn3cc(C(=O)NCc4ccc(F)cc4F)c(=O)c(O)c3C(=O)N12  responders (item: HIV RNA below 50 copies/mL; treatment-experienced HIV adults; dose not given, 48 weeks, phase III): 71%
CCC1(C)CC(=O)NC1=O (centres unmarked)  ED50 (protection from seizures; CF-1 mice, 6 Hz corneal stimulation; ip, with: 22 mA): 86.9 mg/kg
CC(C)[C@H]1c2ccc(F)cc2CC[C@@]1(CCN(C)CCCc1nc2ccccc2[nH]1)OC(=O)C1CC1.Cl.Cl  tremor reduction (C57BL/6 wild-type mouse; 12.5 mg/kg, after 20 min harmaline-alone epoch, with: harmaline): ~60%
CC(C)(O)CCn1cc2cc(NC(=O)c3cccc(C(F)(F)F)n3)c(C(C)(C)O)cc2n1  inhibition (TNF-alpha release; healthy male human, whole blood; 400 mg daily, 10 days, with: LPS 0.1 ng/mL for 6 h): 70%
CN1CCN(CCOc2cc(OC3CCOCC3)c3c(Nc4c(Cl)ccc5c4OCO5)ncnc3c2)CC1  response rate (human platinum-sensitive ovarian cancer; dose not given, with: paclitaxel and carboplatin): 53.4%
C[C@]12CC[C@@H]3c4cc(C56CC7CC(CC(C7)C5)C6)c(O)cc4CC[C@H]3[C@@H]1CCC2=O  IC50 (lipid peroxidation, TBARS; rat brain homogenate; with: 50 µM ferric ions): 1.13 µM
CC[C@@]1(O)C(=O)OCc2c1cc1n(c2=O)Cc2cc3c(CN(C)C)c(O)ccc3nc2-1  2-year overall survival (patients with etoposide/carboplatin-refractory pulmonary carcinoid; dose not given): < 20%
CC(C)(C)OC[C@@H]1C(=O)NCCN1C(=O)C[C@H](N)Cc1cc(F)c(F)cc1F  HbA1c reduction (type 2 diabetes patients; oral, 5 mg once daily, 12 weeks; relative to: placebo): 0.57%
C[C@]1(c2nc3c(C(N)=O)cccc3[nH]2)CCCN1  pathological complete response rate (human, early-stage TNBC; 50 mg twice daily, then AC, with: paclitaxel, carboplatin AUC 6): 51%
C[C@]12CC=C3c4ccc(O)cc4CC[C@H]3[C@@H]1CC[C@@H]2O  IC50 (lipid peroxidation, TBARS; rat brain homogenate; with: 50 µM ferric ions): 4.92 µM
CC(=O)O[C@H]1CC[C@@]2(C)C(=CC[C@@H]3[C@@H]2CC[C@]2(C)C(c4cccnc4)=CC[C@@H]32)C1  overall survival gain (human mCRPC, pre-chemotherapy; dose not given, with: prednisone; relative to: prednisone alone): 4.4 months
C[C@]12CCC[C@@H]1[C@H]1CCc3cc(O)ccc3[C@@H]1CC2 (single isomer, unassigned)  IC50 (lipid peroxidation, TBARS; rat brain homogenate; with: 50 µM ferric ions): 9.17 µM
bevacizumab  median overall survival (human, advanced non-squamous NSCLC; dose not given, phase III, with: paclitaxel and carboplatin; relative to: chemotherapy alone): 12.3 months
